# Assay results from different studies.
# Each line is one published result; not all experiments were run side by side.
SMILES,test,test system,setting,quantity,result
CN1CC[C@@H](c2c(O)cc(O)c3c(=O)cc(-c4ccc(C(F)(F)F)cc4Cl)oc23)[C@@H]1CO,measured: Vomiting,B-cell malignancies,"oral, 150 mg, intermittent dosing",patients with adverse event,0%
O=C1Nc2cc3[nH]nc(-c4ccncc4)c3cc2CN1Cc1ccccc1,CTCAE v4.03,advanced solid tumour patients,"intravenous, 1.8 mg/kg, schedules 1/2",patients with blurred vision,0%
C[C@@H]1OC(=O)NN=C1c1ccc(-c2ccc(F)cc2)c(C(F)(F)F)c1,,"patients, phase I trial","oral, dose not given, all arms, any grade TEAE",patients with back pain,20%
CC(=O)c1c(C)c2cnc(Nc3ccc(C4CCN(CCS(C)(=O)=O)CC4)cn3)nc2n(C2CCCC2)c1=O,,HR+/HER2- advanced breast cancer patients,"oral, dose not given, grade 3/4, total",patients with any TEAE,79%
C=CCNc1c(O)cc2c(O)c1C[C@@H](C)C[C@H](OC)[C@H](O)[C@@H](C)/C=C(\C)[C@H](OC(N)=O)[C@@H](OC)/C=C\C=C(/C)C(=O)N2,,"unresectable or metastatic STS, GIST, other","intravenous, 500 mg/m^2",patients with arthralgia TEAE,0%
N[C@@H]1c2ccccc2OC12CCN(c1cnc3c(N4CCCc5ncccc54)n[nH]c3n1)CC2,,advanced solid tumour patients,"oral, 100 mg once daily",patients with serious TEAE,14.3%
COc1c(OCCCN2CCOCC2)ccc2c1N=C(NC(=O)c1cnc(N)nc1)N1CCN=C21,measured: Any,patients with advanced malignancies,"intravenous, dose not given, any grade, all cohorts, with: gemcitabine",patients with adverse event,100%
Nc1nc2cc(-c3ccc4ncc(C(=O)N5CCOCC5)n4c3)ccc2o1,"all-cause adverse events, grade ≥3",patients with advanced solid tumours,dose not given,patients with adverse events,54%
CCN(CCO)CCCC(C)Nc1ccnc2cc(Cl)ccc12 (stereo not shown),measured: Anorexia grade 1,newly diagnosed glioblastoma patients,"oral, 200 mg/dose, with radiotherapy and temozolomide",patients with adverse event,66%
CO[C@H]1C[C@@H]2CC[C@@H](C)[C@@](O)(O2)C(=O)C(=O)N2CCCC[C@H]2C(=O)O[C@H]([C@H](C)C[C@@H]2CC[C@@H](OC(=O)NCCOCCOCCOCCOCCOCCOCCOCCOCCC(=O)N3CCc4cc(Cn5nc(-c6ccc7oc(N)nc7c6)c6c(N)ncnc65)ccc4C3)[C@H](OC)C2)C[C@@H](O)[C@H](C)/C=C(\C)[C@@H](O)[C@@H](OC)C(=O)[C@H](C)C[C@H](C)/C=C/C=C/C=C/1C,measured: treatment-related mucositis,patients with advanced solid tumours,"intravenous, 8 to 12 mg, DM alone without TM, weekly",patients with AE,65%

# A few entries again:
SMILES,test,test system,setting,quantity,result
N[C@@H]1c2ccccc2OC12CCN(c1cnc3c(N4CCCc5ncccc54)n[nH]c3n1)CC2,,advanced solid tumour patients,"oral, 100 mg once daily",patients with serious TEAE,14.3%
